Results gathered from unrelated publications.
A part holds a random share of what one study measured. Substitutions count along the parent as printed.

Block 1
Target: CRIPT, C-terminal peptide
Technique: DHFR complementation, deep sequencing
Matrix: yeast
Notes: single substitutions, model-inferred values
Relative to: wild type
Reading: higher = weaker binding
Measurement: binding free energy change
Starting sequence: ERBIN, PDZ domain 1 (human); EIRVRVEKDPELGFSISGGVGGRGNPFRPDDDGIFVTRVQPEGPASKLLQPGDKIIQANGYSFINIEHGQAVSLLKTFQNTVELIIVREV; partner TKNYKQTSV
Y61L: 0.0319 kcal/mol
K8E: 0.934 kcal/mol
R23G: -1.66 kcal/mol
G52T: 0.419 kcal/mol
I34W: 0.53 kcal/mol
F27T: 1.2 kcal/mol
G13M: 0.497 kcal/mol
Q70G: -0.119 kcal/mol
V39P: 0.433 kcal/mol
E67S: -0.061 kcal/mol
R3A: -0.142 kcal/mol

Block 2
Target: Histone acetyltransferase KAT6A, winged helix 2, GST fusion (KAT6A, Homo sapiens, UniProt Q92794, residues 85-181)
Technique: protein binding microarray
Form: double-stranded DNA, one strand shown
Matrix: in vitro
Concentration: not given
Notes: 8-mer, flanks averaged, mean of 2 arrays, mostly near background
Relative to: not given
Reading: higher = stronger binding
Measurement: E-score
Residues (chain): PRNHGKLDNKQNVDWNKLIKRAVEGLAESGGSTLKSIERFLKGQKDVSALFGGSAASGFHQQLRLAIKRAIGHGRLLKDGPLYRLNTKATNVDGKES
ATGACGCG: 0.0553
CACAACTC: -0.00671
CACTCTCC: -0.00536
ACCCTTTC: -0.129
ACAATGAG: -0.0645
AAATCTTC: -0.139
AATTACAT: 0.153
AGGAATGC: -0.0567
CAGCACAG: 0.0678
AGGAGGAC: -0.171
AGCTAACA: -0.0284
AGTACATC: -0.291
ATTGCGAA: -0.0334
ACTCGTAG: -0.00562
TATCATGA: -0.00301
GGGTGAGA: -0.173
CGTACCCC: 0.085
ACCGAGCC: 0.0242
GTCATACA: -0.0179
GTAGACAC: 0.0578
ACCAAGCG: 0.013
GCCCTTTA: -0.164
AATCCAAG: -0.0351
ATTCTCAA: -0.0763
CGTTGTAA: -0.0678

Block 3
Target: CCNB2, cyclin fold, Cln2 fusion (human)
Technique: yeast growth competition, sequencing
Matrix: yeast
Notes: weak parent motif
Relative to: not given
Reading: higher = stronger binding
Measurement: normalised enrichment score
Starting sequence: MASTL docking peptide (human); PMIAKNLMCELDE; partner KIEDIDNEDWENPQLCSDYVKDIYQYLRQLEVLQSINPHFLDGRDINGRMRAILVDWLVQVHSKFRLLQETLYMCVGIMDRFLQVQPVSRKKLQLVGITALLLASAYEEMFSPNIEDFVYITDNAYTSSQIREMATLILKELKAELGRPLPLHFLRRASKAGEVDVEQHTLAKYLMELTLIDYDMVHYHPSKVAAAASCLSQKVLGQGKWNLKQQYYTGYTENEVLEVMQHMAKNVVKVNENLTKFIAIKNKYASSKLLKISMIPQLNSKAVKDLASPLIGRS
C9P: 0.89
D12H: 0.702
C9M: 0.676
E10K: 0.615
L11C: -0.169
D12M: 0.854
D12A: 0.718
E10G: -0.237
A4T: 0.492
D12N: 0.533
D12C: 0.585
M2V: 0.91
D12K: 0.294
N6A: -0.0226
A4E: 0.146
I3V: 0.301
K5V: -0.304
L7H: -1.18
A4H: -0.0149
M2P: 0.844
A4F: -0.324
M8S: 0.438
M8D: 0.421
L7R: 0.0881
M8G: -0.178

Block 4
Target: Prothrombin, mature alpha-thrombin (F2, Homo sapiens, UniProt P00734)
Technique: aptamer microarray, sandwich
Form: DNA with 2'F-ANA
Matrix: in vitro
Concentration: 200 nM
Notes: whole 15-mer aptamer, many near background
Together with: Cy3 exosite-II aptamer, 400 nM
Reading: higher = stronger binding
Measurement: mean fluorescence intensity
Strand: GGTTGGTGTGGTTGG
2'F-ANA at 1 2 11: 142 a.u.
2'F-ANA at 2 3 5 6 7 8 9 10 13 15: 58.3 a.u.
2'F-ANA at 2 3 4 5 6: 88 a.u.
2'F-ANA at 1 2 3 4 7 9 15: 156 a.u.
2'F-ANA at 1 4 6 7 9 10 11 12 15: 55 a.u.
2'F-ANA at 3 6 8 11: 1070 a.u.
2'F-ANA at 2 3 7 8 10 11: 378 a.u.
2'F-ANA at 1 3 4 7 10 11 14 15: 50.5 a.u.
2'F-ANA at 1 2 4 5 6 7 9 12 13 14 15: 65.6 a.u.
2'F-ANA at 5 6 9 11 13 15: 61.3 a.u.
2'F-ANA at 1 3 6 8 11 13 14 15: 87.5 a.u.
2'F-ANA at 3 4 6 7 13 15: 484 a.u.
2'F-ANA at 1 8 9 11 13 14 15: 54.1 a.u.
2'F-ANA at 3 4 5 6 8 12 14 15: 55.4 a.u.
2'F-ANA at 1 2 3 4 7 8 13 15: 128 a.u.
2'F-ANA at 1 3 4 5 6 7 8 10 11 12 14: 49.3 a.u.
2'F-ANA at 2 6 9 13: 259 a.u.

Mixed results
PhoQ, residues 284 288 289 292 302 303 DDMDFR
fold induction (PhoP, residues 12 14 15 18 19 AGCRL (Escherichia coli, UniProt P23836); Sort-seq, refers to: YFP reporter; E. coli; PhoQ-PhoP variant library, together with: 10 µM Mg2+; relative to: high Mg2+ state, higher = stronger signaling): 0.82

A few entries again (block 3):
A4H: -0.0149
E10G: -0.237
A4T: 0.492
M2P: 0.844
M2V: 0.91
L11C: -0.169
D12N: 0.533
M8G: -0.178
M8S: 0.438
C9M: 0.676
D12H: 0.702
